# Measured values of several laboratories.
# IL18BP: IL18BP (Homo sapiens, UniProt O95998)
# B1: EFR3A 721-791 (Homo sapiens, UniProt Q14156); chain SNTEEITFEALKKAIDTSGMEEQEKEKRRLVIEKFQKAPFEEIAAQCESKANLLHDRLAQILELTIRPPPS
# B2: IL18 37-193 S46C/C74S/C104S/C112S/C163S/V189C (Homo sapiens, UniProt Q14116); chain YFGKLESKLCVIRNLNDQVLFIDQGNRPLFEDMTDSDSRDNAPRTIFIISMYKDSQPRGMAVTISVKSEKISTLSSENKIISFKEMNPPDNIKDTKSDIIFFQRSVPGHDNKMQFESSSYEGYFLASEKERDLFKLILKKEDELGDRSIMFTCQNED
# B3: EFR3B 716-787 (Homo sapiens, UniProt Q9Y2G0); chain VPAEEITYETLKKAIVDSVAVEEQERERRRQVVEKFQKAPFEEIAAHCGARASLLQSKLNQIFEITIRPPPS
# B4: UPF2 761-1054 (Homo sapiens, UniProt Q9HAU5); sequence looked up; chain EKTVKKKRPPLQEYVRKLLYKDLSKVTTEKVLRQMRKLPWQDQEVKDYVICCMINIWNVKYNSIHCVANLLAGLVLYQEDVGIHVVDGVLEDIRLGMEVNQPKFNQRRISSAKFLGELYNYRMVESAVIFRTLYSFTSFGVNPDGSPSSLDPPEHLFRIRLVCTILDTCGQYFDRGSSKRKLDCFLVYFQRYVWWKKSLEVWTKDHPFPIDIDYMISDTLELLRPKIKLCNSLEESIRQVQDLEREFLIKLGLVNDKDSKDSMTEGENLEEDEEEEEGGAETEEQSGNESEVNE
# B5: EFNB1 28-237 (Homo sapiens, UniProt P98172); sequence looked up; chain LAKNLEPVSWSSLNPKFLSGKGLVIYPKIGDKLDIICPRAEAGRPYEYYKLYLVRPEQAAACSTVLDPNVLVTCNRPEQEIRFTIKFQEFSPNYMGLEFKKHHDYYITSTSNGSLEGLENREGGVCRTRTMKIIMKVGQDPNAVTPEQLTTSRPSKEADNTVKMATQAPGSRGSLGDSDGKHETVNQEEKSGPGASGGSSGDPDGFFNSK
# B6: Pard6b 1-371 (Mus musculus, UniProt Q9JK83); chain MNRGHRHGASSGCLGTMEVKSKFGAEFRRFSLERSKPGKFEEFYGLLQHVHKIPNVDVLVGYADIHGDLLPINNDDNYHKAVSTANPLLRIFIQKKEEADYSAFGTDTLIRKKNMLSNVLRPDNHRKKPHIVISMPQDFRPVSSIIDVDILPETHRRVRLYKYGTEKPLGFYIRDGSSVRVTPHGLEKVPGIFISRLVPGGLAQSTGLLAVNDEVLEVNGIEVSGKSLDQVTDMMIANSRNLIITVRPANQRNNVVRNSRTSGSSSQSTDNSLLGFPQQVEASFEPEDQDSDEDDIIIEDSGEPQQIPKATPAQSLESLTQIELSFESGQNGFSPPQDTSLVPVPGSLDTELESRAPDQKLLEEDGTIITL
# B7: IL18 37-193 L45C/C74S/C104S/C112S/C163S/E192C (Homo sapiens, UniProt Q14116); chain YFGKLESKCSVIRNLNDQVLFIDQGNRPLFEDMTDSDSRDNAPRTIFIISMYKDSQPRGMAVTISVKSEKISTLSSENKIISFKEMNPPDNIKDTKSDIIFFQRSVPGHDNKMQFESSSYEGYFLASEKERDLFKLILKKEDELGDRSIMFTVQNCD
# Chain of UniProt Q9BZI7 (whole entry, looked up): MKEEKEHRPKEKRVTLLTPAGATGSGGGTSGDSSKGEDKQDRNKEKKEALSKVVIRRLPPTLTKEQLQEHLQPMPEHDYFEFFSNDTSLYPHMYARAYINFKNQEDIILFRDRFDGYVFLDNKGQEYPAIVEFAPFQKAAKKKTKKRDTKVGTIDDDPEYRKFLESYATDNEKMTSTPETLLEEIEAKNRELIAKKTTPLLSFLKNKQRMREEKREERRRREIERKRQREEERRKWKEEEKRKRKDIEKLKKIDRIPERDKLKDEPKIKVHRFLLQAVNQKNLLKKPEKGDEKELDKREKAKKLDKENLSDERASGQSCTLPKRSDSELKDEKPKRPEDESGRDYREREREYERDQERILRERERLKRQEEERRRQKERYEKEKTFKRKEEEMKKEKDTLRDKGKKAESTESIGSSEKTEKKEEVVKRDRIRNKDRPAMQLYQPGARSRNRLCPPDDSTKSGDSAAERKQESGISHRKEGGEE
# Chain of UniProt P00736 (whole entry, looked up): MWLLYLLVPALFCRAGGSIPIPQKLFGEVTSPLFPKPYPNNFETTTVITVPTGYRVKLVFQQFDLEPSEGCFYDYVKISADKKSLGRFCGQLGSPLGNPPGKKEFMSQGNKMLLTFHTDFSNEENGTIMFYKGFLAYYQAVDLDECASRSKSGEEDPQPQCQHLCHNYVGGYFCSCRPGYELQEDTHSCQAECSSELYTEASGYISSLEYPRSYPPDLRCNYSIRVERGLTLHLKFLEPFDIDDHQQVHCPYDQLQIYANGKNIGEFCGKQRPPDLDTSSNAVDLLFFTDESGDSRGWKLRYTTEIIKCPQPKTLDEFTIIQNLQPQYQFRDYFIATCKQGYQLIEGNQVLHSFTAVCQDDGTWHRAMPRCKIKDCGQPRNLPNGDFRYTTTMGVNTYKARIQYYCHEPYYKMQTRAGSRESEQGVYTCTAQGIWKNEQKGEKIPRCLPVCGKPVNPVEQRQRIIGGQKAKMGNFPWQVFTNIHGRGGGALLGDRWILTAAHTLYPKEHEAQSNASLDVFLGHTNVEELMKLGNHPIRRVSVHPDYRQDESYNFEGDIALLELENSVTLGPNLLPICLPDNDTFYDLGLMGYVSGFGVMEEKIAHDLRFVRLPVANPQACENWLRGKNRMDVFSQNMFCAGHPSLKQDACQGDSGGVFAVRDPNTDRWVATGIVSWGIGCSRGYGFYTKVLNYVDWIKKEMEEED
# Chain of UniProt P29317 (25-968, looked up): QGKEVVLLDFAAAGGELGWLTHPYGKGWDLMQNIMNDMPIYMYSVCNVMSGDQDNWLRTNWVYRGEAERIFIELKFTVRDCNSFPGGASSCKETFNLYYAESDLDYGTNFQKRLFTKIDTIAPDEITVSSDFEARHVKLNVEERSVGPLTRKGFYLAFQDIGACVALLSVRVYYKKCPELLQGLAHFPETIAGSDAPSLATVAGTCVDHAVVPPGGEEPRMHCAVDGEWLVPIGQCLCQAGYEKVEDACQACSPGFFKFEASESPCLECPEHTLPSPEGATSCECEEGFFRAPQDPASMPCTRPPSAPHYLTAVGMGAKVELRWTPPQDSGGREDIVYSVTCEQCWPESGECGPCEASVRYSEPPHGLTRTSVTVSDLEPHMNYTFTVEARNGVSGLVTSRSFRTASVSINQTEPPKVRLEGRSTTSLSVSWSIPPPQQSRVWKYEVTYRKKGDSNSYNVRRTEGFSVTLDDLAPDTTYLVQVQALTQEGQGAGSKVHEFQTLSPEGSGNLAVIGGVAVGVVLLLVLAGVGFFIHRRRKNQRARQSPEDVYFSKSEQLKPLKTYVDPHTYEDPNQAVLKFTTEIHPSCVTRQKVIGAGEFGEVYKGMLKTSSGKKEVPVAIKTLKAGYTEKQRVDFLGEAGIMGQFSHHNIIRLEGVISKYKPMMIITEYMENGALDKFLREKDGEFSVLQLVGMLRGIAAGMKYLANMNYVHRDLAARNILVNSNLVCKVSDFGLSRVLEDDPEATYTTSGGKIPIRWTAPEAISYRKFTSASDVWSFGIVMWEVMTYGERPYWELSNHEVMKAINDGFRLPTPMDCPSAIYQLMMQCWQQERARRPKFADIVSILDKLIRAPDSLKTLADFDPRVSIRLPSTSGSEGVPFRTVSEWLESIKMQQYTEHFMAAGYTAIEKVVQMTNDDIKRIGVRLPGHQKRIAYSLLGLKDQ
# Chain of UniProt Q6P1M3 (whole entry, looked up): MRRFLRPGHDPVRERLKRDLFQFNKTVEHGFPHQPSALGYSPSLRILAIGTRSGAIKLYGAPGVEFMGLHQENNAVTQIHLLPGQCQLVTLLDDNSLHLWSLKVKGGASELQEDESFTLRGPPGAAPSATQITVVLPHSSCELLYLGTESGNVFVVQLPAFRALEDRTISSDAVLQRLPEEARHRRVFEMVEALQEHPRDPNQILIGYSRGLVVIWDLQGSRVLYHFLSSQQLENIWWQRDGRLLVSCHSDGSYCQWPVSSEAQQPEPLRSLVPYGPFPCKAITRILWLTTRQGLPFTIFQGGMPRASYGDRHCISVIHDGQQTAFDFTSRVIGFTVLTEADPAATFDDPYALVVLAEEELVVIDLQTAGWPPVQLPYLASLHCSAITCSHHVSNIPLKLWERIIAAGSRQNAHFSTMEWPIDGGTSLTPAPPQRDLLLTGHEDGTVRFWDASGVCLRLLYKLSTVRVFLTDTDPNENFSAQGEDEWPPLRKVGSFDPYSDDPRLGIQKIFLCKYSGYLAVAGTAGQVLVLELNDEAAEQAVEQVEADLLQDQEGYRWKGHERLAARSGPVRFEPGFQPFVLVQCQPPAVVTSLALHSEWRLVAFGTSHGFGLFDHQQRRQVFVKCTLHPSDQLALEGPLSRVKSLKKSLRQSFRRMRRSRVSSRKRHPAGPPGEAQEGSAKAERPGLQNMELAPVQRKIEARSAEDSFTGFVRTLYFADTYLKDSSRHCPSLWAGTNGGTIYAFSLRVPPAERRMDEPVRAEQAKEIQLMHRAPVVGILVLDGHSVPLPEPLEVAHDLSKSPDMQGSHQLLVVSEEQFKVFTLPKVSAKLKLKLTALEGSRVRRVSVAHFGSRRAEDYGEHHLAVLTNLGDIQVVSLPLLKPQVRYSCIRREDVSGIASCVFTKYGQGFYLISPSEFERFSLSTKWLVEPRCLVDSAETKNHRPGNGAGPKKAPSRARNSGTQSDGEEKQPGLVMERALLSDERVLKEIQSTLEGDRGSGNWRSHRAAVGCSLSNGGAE
Substance,tested on,assay,system,conditions,scale,quantity,result
B1 (EFR3A 721-791),TTC7A/FAM126B 1-308,BLI,,,,koff,0.000439 s⁻¹
B2,IL18BP,SPR,,,,koff,4.3e-05 s⁻¹
"MBL-A mature, hydroxylysine, hydroxyproline in collagen (Rattus norvegicus, UniProt P19999)","C1R (Homo sapiens, UniProt P00736)",SPR,,added: CaCl2 140 mM,,koff,0.00384 s⁻¹
human eIF4A1,PP6C (human),"co-immunoprecipitation, IP-MS",CYB5R4 knockout cells,concentration not given,relative to: CYB5R4 knockout over parental,log2 fold change,0.52
B3 (EFR3B 716-787),TTC7B/FAM126B FAM126B 1-308,BLI,,,,koff,0.000205 s⁻¹
B4 (UPF2 761-1054),"UPF3B (Homo sapiens, UniProt Q9BZI7)",BLI,,,,koff,0.00251 s⁻¹
SRSF1 (human),PP6C (human),"co-immunoprecipitation, IP-MS",CYB5R4 knockout cells,concentration not given,relative to: CYB5R4 knockout over parental,log2 fold change,-0.26
B5 (EFNB1 28-237),"EPHA2 residues 25-968, auto-phosphorylated (Homo sapiens, UniProt P29317)",BLI,Fc fusion,apparent,,koff,0.467 s⁻¹
B6 (Pard6b 1-371),"LLGL2 13-978, dephosphorylated (Homo sapiens, UniProt Q6P1M3)",BLI,,,,koff,0.0356 s⁻¹
B7,IL18BP,SPR,,,,koff,3.1e-05 s⁻¹

# Some of these lines once more:
Substance,tested on,assay,system,conditions,scale,quantity,result
B2,IL18BP,SPR,,,,koff,4.3e-05 s⁻¹
